Assay results collected from several papers.
Target: Glycogen synthase kinase-3 beta (GSK3B, Homo sapiens, UniProt P49841)
Chain of UniProt P49841 (whole entry, looked up): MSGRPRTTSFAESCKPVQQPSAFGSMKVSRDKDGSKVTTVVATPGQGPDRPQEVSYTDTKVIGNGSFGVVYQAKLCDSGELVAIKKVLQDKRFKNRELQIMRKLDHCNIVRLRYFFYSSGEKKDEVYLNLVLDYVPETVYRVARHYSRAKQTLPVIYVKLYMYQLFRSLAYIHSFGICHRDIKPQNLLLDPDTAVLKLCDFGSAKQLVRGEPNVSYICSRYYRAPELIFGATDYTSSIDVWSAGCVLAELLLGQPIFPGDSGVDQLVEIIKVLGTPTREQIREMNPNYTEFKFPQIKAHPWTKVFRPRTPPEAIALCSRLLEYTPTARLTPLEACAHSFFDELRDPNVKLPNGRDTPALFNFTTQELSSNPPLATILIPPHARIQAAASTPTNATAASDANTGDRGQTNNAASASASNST

| SMILES | test | system | conditions | scale | quantity | result |
| --- | --- | --- | --- | --- | --- | --- |
| O=C1NC(=O)c2c1c1cc(F)c[n+]3c1c1c2c2cc(O)ccc2[n]1[Ru-4]312([N]=C=S)[S+]3CC[S+]1CC[S+]2CC3 (centres unmarked) | enzyme activity | – | 100 nM, human enzyme, together with: 10 µM ATP | reference: untreated | remaining activity | 56% |
| N[C@H](C(=O)N1CCCC1)C1CCN(c2nccc3c(-c4ncc(Cl)cc4Cl)cccc23)CC1 | kinase activity, inhibitor | – | 10 µM, together with: ATP 1 mM | – | inhibition | -0.3% |
| CN(C)[C@H]1C[C@@]23CC[C@@]4(O2)C(=CC[C@]2(C)[C@@H](c5ccc6ccncc6c5)CC[C@H]24)C=C3[C@@H](O)[C@@H]1O | ATP probe labelling, inhibitor, KiNativ profiling | – | 1 µM | – | inhibition | 5.2% |
| C[C@H](NCc1ccc(-c2ccc(C(F)(F)F)cc2)cc1)C(N)=O | cell-free assay, competition with immobilised ligand | – | 1 µM | – | inhibition | 8% |
| CS(C)(=O)=Nc1ccc(-c2ccc(-c3nc4cc(O[C@@H]5CO[C@H]6[C@@H]5OC[C@H]6O)[nH]c4cc3F)cc2)cc1 | enzyme activity, inhibitor | – | 10 µM | – | inhibition | -19% |
| CCOC(=O)[C@](CC)(CCCSCCOCCOCCNC(=O)c1ccc(-c2c3ccc(=N)c(S(=O)(=O)O)c-3oc3c(S(=O)(=O)O)c(N)ccc23)c(C(=O)O)c1)NC(=O)c1ccc(C2CC2)c(Cc2ccc(F)cc2)n1 | enzyme activity, inhibitor | – | 10 µM | – | inhibition | -10% |
| CCOC(=O)[C@@H]1Cc2c(cc([N+](=O)[O-])cc2[N+](=O)[O-])[C@H](O)[C@]12C(=O)Nc1ccc(Br)cc12 | binding, competition with immobilised ligand | – | 0.1 µM | – | remaining binding | 44% |
| Nc1ccc(/C=C/C(=O)N2CCc3c(oc4c(-c5ccc(F)cc5)cc(-c5ccc(C(=O)N6CCC(F)(F)CC6)cn5)cc34)C2)cn1 | binding, competition with immobilised ligand | – | 1 µM | – | remaining binding | 100% |
| C=CC(=O)Nc1cc(-c2nn(C3CCC(N4CCN(C(C)=O)CC4)CC3)c3ncnc(N)c23)ccc1Oc1ccccc1 (centres unmarked) | inhibitor, KiNativ profiling | biochemical | 2 µM | – | inhibition | -9.3% |
| CC(C)[C@H]1NC(=O)C[C@H]2/C=C/CCSSC[C@@H](NC1=O)C(=O)N[C@H](Cc1cccc3ccccc13)C(=O)NCC(=O)O2 | enzyme activity, inhibitor | – | 10 µM | – | inhibition | -3.6% |
| CN(/N=C/c1ccccc1C(=O)O)c1nc(-c2ccccc2Cl)cs1 | enzyme activity, inhibitor | – | 1 µM | – | inhibition | -8.51% |

Repeated from above:
| SMILES | test | system | conditions | scale | quantity | result |
| --- | --- | --- | --- | --- | --- | --- |
| CN(C)[C@H]1C[C@@]23CC[C@@]4(O2)C(=CC[C@]2(C)[C@@H](c5ccc6ccncc6c5)CC[C@H]24)C=C3[C@@H](O)[C@@H]1O | ATP probe labelling, inhibitor, KiNativ profiling | – | 1 µM | – | inhibition | 5.2% |
